Measurements from different studies.
Parts stem from different laboratories: compare values within a part only.
UniProt P42336, sequence (whole entry, unmodified, looked up): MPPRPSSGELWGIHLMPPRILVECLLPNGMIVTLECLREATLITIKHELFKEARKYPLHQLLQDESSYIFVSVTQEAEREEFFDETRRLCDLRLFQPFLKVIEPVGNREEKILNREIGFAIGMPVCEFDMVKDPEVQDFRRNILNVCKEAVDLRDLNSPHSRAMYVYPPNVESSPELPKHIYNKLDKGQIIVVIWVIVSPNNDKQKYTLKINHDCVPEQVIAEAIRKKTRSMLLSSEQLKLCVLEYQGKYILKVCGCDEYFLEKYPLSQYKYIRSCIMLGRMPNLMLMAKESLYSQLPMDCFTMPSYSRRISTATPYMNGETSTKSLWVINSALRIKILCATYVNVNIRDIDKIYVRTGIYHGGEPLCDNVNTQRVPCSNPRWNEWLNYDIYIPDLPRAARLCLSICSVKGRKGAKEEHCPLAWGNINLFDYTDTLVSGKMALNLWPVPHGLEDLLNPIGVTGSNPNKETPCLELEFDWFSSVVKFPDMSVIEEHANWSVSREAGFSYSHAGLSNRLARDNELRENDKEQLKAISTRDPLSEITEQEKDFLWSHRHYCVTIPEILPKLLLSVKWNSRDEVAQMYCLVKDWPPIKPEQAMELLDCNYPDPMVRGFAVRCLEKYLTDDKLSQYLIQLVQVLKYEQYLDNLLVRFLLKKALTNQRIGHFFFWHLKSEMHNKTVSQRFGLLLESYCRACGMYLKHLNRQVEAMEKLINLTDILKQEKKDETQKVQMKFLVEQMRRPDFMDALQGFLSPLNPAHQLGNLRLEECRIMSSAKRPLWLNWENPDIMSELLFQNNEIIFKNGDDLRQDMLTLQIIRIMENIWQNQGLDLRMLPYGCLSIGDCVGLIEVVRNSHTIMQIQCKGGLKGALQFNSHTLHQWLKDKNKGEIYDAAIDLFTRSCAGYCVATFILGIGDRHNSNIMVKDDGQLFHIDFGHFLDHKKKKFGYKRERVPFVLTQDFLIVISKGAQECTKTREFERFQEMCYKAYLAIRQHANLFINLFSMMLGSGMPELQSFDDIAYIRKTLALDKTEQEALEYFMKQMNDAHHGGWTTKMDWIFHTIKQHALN
UniProt Q8NEV4, sequence (whole entry, looked up): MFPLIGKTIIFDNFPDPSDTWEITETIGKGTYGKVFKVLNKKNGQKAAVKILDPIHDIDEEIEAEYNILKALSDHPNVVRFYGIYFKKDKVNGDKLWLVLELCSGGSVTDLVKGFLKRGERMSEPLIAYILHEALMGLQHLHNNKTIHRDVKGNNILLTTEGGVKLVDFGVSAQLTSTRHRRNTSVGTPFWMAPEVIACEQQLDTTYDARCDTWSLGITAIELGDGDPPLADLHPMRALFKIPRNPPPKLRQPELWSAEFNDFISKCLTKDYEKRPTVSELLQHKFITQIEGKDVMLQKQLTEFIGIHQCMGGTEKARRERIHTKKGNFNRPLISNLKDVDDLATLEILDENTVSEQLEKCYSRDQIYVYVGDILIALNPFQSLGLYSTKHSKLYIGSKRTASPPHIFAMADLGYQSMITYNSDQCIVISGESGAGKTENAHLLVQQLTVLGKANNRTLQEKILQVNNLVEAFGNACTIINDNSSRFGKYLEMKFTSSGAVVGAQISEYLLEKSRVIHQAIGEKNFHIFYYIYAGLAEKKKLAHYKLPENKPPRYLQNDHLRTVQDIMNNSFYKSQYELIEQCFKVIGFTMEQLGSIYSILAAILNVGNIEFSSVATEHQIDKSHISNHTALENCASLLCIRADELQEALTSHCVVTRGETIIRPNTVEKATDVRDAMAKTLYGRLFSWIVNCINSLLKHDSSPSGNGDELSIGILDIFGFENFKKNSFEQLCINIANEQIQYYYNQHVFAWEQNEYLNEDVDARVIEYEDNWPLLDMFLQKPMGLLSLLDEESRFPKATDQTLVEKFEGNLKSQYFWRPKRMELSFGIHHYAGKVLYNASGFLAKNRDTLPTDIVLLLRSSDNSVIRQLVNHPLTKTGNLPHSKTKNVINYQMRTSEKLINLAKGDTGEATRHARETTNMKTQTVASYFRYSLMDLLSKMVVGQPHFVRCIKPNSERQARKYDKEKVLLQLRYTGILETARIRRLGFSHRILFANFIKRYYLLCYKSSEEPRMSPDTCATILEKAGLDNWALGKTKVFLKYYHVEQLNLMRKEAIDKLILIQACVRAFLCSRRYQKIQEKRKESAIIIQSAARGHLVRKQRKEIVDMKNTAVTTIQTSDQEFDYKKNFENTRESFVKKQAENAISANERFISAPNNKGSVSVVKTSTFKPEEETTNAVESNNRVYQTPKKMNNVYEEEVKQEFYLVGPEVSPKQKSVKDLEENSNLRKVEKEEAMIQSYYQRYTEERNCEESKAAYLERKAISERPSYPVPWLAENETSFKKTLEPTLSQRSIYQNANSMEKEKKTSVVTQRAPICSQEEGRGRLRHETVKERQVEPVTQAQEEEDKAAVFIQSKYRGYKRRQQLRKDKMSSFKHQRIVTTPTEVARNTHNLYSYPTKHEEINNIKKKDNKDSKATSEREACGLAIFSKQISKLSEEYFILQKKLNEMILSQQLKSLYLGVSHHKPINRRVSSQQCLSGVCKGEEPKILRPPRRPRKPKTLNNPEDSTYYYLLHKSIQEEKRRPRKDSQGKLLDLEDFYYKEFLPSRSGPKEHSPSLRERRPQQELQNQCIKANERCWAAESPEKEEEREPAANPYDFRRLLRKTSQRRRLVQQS
UniProt Q06418, sequence (whole entry, looked up): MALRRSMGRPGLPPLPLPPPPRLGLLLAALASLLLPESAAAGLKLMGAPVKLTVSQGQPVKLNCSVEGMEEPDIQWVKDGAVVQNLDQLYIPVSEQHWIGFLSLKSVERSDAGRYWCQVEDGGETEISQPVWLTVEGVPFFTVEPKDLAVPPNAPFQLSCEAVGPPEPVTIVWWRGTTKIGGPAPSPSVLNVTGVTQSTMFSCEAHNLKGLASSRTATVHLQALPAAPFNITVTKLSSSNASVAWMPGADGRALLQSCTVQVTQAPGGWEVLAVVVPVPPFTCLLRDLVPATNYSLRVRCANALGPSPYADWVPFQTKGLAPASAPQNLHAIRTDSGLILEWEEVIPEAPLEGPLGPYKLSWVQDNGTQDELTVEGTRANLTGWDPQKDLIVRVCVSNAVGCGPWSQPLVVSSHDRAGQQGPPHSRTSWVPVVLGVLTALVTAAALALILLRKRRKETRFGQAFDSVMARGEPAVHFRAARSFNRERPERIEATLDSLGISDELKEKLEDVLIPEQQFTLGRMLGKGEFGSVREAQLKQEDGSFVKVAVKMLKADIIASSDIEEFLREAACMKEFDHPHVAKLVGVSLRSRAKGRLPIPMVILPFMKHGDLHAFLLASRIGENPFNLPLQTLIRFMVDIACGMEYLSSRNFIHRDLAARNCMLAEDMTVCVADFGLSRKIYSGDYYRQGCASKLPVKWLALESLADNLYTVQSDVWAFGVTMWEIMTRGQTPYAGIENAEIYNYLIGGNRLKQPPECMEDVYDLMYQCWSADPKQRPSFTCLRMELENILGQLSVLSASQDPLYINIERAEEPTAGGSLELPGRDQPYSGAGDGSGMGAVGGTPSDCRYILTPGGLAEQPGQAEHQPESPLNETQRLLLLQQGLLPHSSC
UniProt Q96Q40, sequence (whole entry, looked up): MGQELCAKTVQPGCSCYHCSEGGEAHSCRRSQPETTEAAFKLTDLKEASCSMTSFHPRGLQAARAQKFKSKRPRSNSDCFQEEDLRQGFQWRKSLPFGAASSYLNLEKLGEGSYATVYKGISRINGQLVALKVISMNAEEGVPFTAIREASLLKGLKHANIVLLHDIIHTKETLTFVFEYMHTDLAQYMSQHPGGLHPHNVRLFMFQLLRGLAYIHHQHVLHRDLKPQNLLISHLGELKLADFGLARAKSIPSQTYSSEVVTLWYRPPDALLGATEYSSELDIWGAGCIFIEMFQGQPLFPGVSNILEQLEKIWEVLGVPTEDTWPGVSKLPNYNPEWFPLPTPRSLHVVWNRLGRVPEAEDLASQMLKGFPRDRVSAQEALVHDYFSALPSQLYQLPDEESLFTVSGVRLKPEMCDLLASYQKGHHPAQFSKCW
UniProt P48729, sequence (whole entry, looked up): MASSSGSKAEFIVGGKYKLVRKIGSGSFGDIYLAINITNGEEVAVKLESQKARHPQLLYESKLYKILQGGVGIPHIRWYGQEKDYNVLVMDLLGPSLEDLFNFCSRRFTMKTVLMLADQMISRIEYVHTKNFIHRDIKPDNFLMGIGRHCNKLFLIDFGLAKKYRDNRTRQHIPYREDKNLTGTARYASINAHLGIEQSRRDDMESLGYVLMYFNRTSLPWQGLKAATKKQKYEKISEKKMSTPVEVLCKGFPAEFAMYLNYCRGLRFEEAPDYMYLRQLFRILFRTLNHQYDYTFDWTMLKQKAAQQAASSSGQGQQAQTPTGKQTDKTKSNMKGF

Study 1
SMILES: C=CC(=O)N1CCC[C@@H](n2nc(-c3ccc(Oc4ccccc4)cc3)c3c(N)ncnc32)C1
Mode: inhibitor
Concentration: 1 µM
Endpoint: inhibition
CSNK1A1 (Homo sapiens, UniProt P48729); enzyme activity: 19%
Myosin-IIIa (MYO3A, Homo sapiens, UniProt Q8NEV4): 34%
EPHA5 (Homo sapiens, UniProt P54756); enzyme activity: 10%
PIK3CD (Homo sapiens, UniProt O00329); enzyme activity: 49%
STK38L (Homo sapiens, UniProt Q9Y2H1); enzyme activity: 10%
Cyclin-dependent kinase 4, with cyclin D3 (CDK4, Homo sapiens, UniProt P11802): 14%
DSTYK (Homo sapiens, UniProt Q6XUX3); enzyme activity: 84%
EIF2AK1 (Homo sapiens, UniProt Q9BQI3); enzyme activity: 44%
VRK2 (Homo sapiens, UniProt Q86Y07); enzyme activity: 36%
CDK15 (Homo sapiens, UniProt Q96Q40); enzyme activity: 12%
STK32A (Homo sapiens, UniProt Q8WU08); enzyme activity: 61%
HCK (Homo sapiens, UniProt P08631); enzyme activity: 98%
Mast/stem cell growth factor receptor Kit, autoinhibited (KIT, Homo sapiens, UniProt P10721): 29%
CSNK1D (Homo sapiens, UniProt P48730); enzyme activity: 5%

Study 2
Target: G protein-coupled receptor kinase 5 (GRK5, Homo sapiens, UniProt P34947)
UniProt P34947, sequence (whole entry, looked up): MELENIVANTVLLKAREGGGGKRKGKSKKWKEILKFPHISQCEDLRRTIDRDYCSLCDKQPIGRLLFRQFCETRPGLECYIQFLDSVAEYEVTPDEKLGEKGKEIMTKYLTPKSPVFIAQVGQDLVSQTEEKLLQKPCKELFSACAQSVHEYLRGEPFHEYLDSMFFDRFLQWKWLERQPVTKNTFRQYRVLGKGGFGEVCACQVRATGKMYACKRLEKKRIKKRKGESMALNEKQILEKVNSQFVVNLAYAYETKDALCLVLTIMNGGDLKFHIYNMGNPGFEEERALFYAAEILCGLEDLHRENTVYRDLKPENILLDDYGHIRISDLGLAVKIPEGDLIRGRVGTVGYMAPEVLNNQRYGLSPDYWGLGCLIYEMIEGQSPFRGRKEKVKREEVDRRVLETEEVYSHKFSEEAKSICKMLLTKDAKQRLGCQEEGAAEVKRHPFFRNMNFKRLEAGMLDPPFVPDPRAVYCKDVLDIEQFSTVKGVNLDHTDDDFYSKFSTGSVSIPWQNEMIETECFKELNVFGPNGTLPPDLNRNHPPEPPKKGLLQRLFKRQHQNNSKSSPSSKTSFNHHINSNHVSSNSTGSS
Effect on: enzyme activity
Mode: inhibitor
Concentration: 0.5 µM
Reference: control
Endpoint: remaining activity
N#CC(C#N)=C(N)/C(C#N)=C/c1ccc(O)cc1: 113%
COc1cc2ncnc(Nc3ccc(F)c(Cl)c3)c2cc1OCCCN1CCOCC1: 94.9%
Cc1nc(-c2ccccc2)c(-c2ccncc2)o1: 104%
Nc1ccc2ncnc(NCCc3ccc(Oc4ccccc4)cc3)c2c1: 98%
Nc1[nH]nc2nc3ccccc3nc12: 101%
O=C(CCCc1ccc(-c2ccccc2F)cc1)Nc1ccc(O)cc1: 98.4%
O=c1c2ccccc2[nH]c(=S)n1CCN1CCC(=C(c2ccc(F)cc2)c2ccc(F)cc2)CC1: 103%
Cn1sc(=O)n(Cc2ccccc2)c1=O: 93.6%
Cc1ccc(Nc2nccc(N(C)c3ccc4c(C)n(C)nc4c3)n2)cc1S(N)(=O)=O: 99.6%
CNC(=O)c1cc(Oc2ccc(NC(=O)Nc3ccc(Cl)c(C(F)(F)F)c3)cc2)ccn1: 97.8%
O=C1NC(=O)C(c2cn(CCCO)c3ncccc23)=C1c1cnccn1: 116%
COc1ccc(C(=O)Nc2sc3c(c2C(N)=O)CCCC3)cc1OC: 104%
COc1cc2ncnc(Nc3ccc(Oc4ccccc4)cc3)c2cc1OC: 97.4%
CCOC(=O)c1c(C)[nH]c(/C=C2\C(=O)Nc3ccccc32)c1C: 102%
OCC(O)CCON=C1C(c2c(O)[nH]c3ccccc23)=Nc2ccccc21 (centres unmarked): 84.6%
CO[C@H]1C[C@@H]2CC[C@@H](C)[C@@](O)(O2)C(=O)C(=O)N2CCCC[C@H]2C(=O)O[C@H]([C@H](C)C[C@@H]2CC[C@@H](O)[C@H](OC)C2)CC(=O)[C@H](C)/C=C(\C)[C@@H](O)[C@@H](OC)C(=O)[C@H](C)C[C@H](C)/C=C/C=C/C=C/1C: 98.7%

Study 3
SMILES: Cc1cc(C)c(-n2ccn3nc(-c4cccnc4)cc23)cc1NC(=O)c1cc(C#N)cc(S(F)(F)(F)(F)F)c1
Technique: competition with immobilised ligand
Concentration: 0.1 µM
Endpoint: remaining binding
SNRK (Homo sapiens, UniProt Q9NRH2); cell-free assay: 100%
Non-receptor tyrosine-protein kinase TYK2, JH1 (TYK2, Homo sapiens, UniProt P29597); cell-free assay: 76.9%
PLK2 (Homo sapiens, UniProt Q9NYY3); cell-free assay: 83.3%
PIK3CA (Homo sapiens, UniProt P42336, M1043I); cell-free assay: 100%
STK26 (Homo sapiens, UniProt Q9P289); cell-free assay: 81.8%
PAK5 (Homo sapiens, UniProt Q9P286); cell-free assay: 83.5%
PIK3CA (Homo sapiens, UniProt P42336, Q546K); cell-free assay: 100%
TNK1 (Homo sapiens, UniProt Q13470); cell-free assay: 87.6%
Ribosomal protein S6 kinase alpha-5, N-terminal kinase domain (RPS6KA5, Homo sapiens, UniProt O75582); cell-free assay: 83.2%
COQ8B (Homo sapiens, UniProt Q96D53); cell-free assay: 93.2%
MAP3K13 (Homo sapiens, UniProt O43283); cell-free assay: 97.9%
PI4KB (Homo sapiens, UniProt Q9UBF8); cell-free assay: 64.7%
MATK (Homo sapiens, UniProt P42679); cell-free assay: 80.4%
TYRO3 (Homo sapiens, UniProt Q06418); cell-free assay: 72.4%
EGFR (Homo sapiens, UniProt P00533, del752-759); cell-free assay: 91.6%
PRKACB (Homo sapiens, UniProt P22694); cell-free assay: 100%
STK36 (Homo sapiens, UniProt Q9NRP7); cell-free assay: 80.8%
STK17A (Homo sapiens, UniProt Q9UEE5); cell-free assay: 100%
PIK3C2B (Homo sapiens, UniProt O00750); cell-free assay: 93.4%
Myosin-IIIa (MYO3A, Homo sapiens, UniProt Q8NEV4); binding: 94.9%
SYK (Homo sapiens, UniProt P43405); cell-free assay: 100%
ROS1 (Homo sapiens, UniProt P08922); cell-free assay: 100%
SGK1 (Homo sapiens, UniProt O00141); cell-free assay: 100%
PIK3CA (Homo sapiens, UniProt P42336); cell-free assay: 87.9%

Study 4
Cell line: 451Lu
Endpoint: IC50
CN1CCN(CCCN2c3ccccc3Sc3ccc(C(F)(F)F)cc32)CC1: 16.6 µM
COCCCC/C(=N\OCCN)c1ccc(C(F)(F)F)cc1: 50.4 µM
CCCCCCCCNC(C)C(O)c1ccc(SC(C)C)cc1 (centres unmarked): 14.8 µM
CNCCC=C1c2ccccc2CCc2ccccc21: 48 µM
CC(C)(C)c1ccc(C(O)CCCN2CCC(C(O)(c3ccccc3)c3ccccc3)CC2)cc1 (centres unmarked): 11.8 µM
OCCN1CCN(CCCN2c3ccccc3Sc3ccc(Cl)cc32)CC1: 17.9 µM
CCN(CC)CCCC(C)Nc1c2ccc(Cl)cc2nc2ccc(OC)cc12 (centres unmarked): 44.2 µM
CN1CCc2c(c3ccccc3n2Cc2ccccc2)C1: > 120 µM
CN(C)CCCN1c2ccccc2Sc2ccccc21: 58.7 µM
OCCN1CCN(CCC=C2c3ccccc3Sc3ccc(C(F)(F)F)cc32)CC1: 32.6 µM
COCC(=O)O[C@]1(CCN(C)CCCc2nc3ccccc3[nH]2)CCc2cc(F)ccc2[C@@H]1C(C)C: 19.2 µM
OCCOCCN1CCN(C(c2ccccc2)c2ccc(Cl)cc2)CC1 (centres unmarked): 93.3 µM
CN(C)CC/C=C1/c2ccccc2Sc2ccc(Cl)cc21: 34.8 µM
OC1(c2ccc(Cl)c(C(F)(F)F)c2)CCN(CCCC(c2ccc(F)cc2)c2ccc(F)cc2)CC1: 14.6 µM

Repeated from above (study 3):
TNK1 (Homo sapiens, UniProt Q13470); cell-free assay: 87.6%
SNRK (Homo sapiens, UniProt Q9NRH2); cell-free assay: 100%
EGFR (Homo sapiens, UniProt P00533, del752-759); cell-free assay: 91.6%
PIK3C2B (Homo sapiens, UniProt O00750); cell-free assay: 93.4%
MATK (Homo sapiens, UniProt P42679); cell-free assay: 80.4%
Myosin-IIIa (MYO3A, Homo sapiens, UniProt Q8NEV4); binding: 94.9%
